Experimental data from different studies.
Numbered parts are unrelated; each lists some results of a single study. Substitutions count along the parent as printed.

Sample 1 — target: CCNF, cyclin fold, Cln2 fusion (human); technique: yeast growth competition, sequencing; sample: yeast; notes: strong parent motif; baseline: not given; direction: higher = stronger binding
Parent: BRCA2 docking peptide (human); PSIKRNLLNEFDR; partner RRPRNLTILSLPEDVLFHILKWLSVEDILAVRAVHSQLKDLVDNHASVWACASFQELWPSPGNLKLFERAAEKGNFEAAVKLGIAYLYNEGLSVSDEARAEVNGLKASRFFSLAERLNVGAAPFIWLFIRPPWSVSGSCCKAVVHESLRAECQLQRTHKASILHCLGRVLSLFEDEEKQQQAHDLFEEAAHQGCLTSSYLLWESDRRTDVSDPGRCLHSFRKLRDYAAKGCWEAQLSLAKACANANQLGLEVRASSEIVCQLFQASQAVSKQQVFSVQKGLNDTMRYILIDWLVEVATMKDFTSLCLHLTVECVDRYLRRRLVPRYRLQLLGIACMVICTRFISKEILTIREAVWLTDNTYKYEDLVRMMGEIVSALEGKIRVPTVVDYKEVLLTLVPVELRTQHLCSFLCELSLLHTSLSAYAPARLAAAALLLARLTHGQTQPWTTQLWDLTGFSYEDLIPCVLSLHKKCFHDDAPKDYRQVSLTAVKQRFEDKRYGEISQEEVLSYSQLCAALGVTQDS
Under “normalised enrichment score”, `L8T` is recorded as 1.47.
`S2L` — result for “normalised enrichment score”: 3.41.
`D12A`: “normalised enrichment score” 3.31.
`L7C` — result for “normalised enrichment score”: 0.0904.
Under “normalised enrichment score”, `L7Y` is recorded as 1.56.
For `R5W`, “normalised enrichment score” read 0.571.
`L7W` — result for “normalised enrichment score”: 1.51.
`E10R` — result for “normalised enrichment score”: 1.87.
`S2T` — result for “normalised enrichment score”: 2.75.
`D12K` — result for “normalised enrichment score”: 1.77.
`R5C` — result for “normalised enrichment score”: -0.332.
`E10G`: “normalised enrichment score” 1.76.
For `I3C`, “normalised enrichment score” read 4.39.
For `E10Y`, “normalised enrichment score” read 3.45.
Under “normalised enrichment score”, `L8P` is recorded as 0.69.

Sample 2 — target: NFE2L3, bZIP domain (human); technique: DHFR protein complementation; sample: yeast; baseline: wild-type JUN-FOS pair; direction: higher = stronger binding
Notes: single substitutions, most at no-binding floor
Parent: JUN, bZIP domain (human); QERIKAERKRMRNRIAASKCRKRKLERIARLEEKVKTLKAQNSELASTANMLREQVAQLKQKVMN; partner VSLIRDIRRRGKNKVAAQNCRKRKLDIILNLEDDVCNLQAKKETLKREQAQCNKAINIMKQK
The binding fitness of `Q41M` is reported as -1.54 natural log.
The binding fitness of `A29P` is reported as -1.55 natural log.
For `M51R`, the binding fitness was -1.46 natural log.
With `A46I` the binding fitness was -1.51 natural log.
`L31V` has a binding fitness of -1.43 natural log.
`K36V` gave a binding fitness of -1.53 natural log.
With `K39S` the binding fitness was -1.55 natural log.
With `E44I` the binding fitness was -1.6 natural log.
For `S47Q`, the binding fitness was -1.53 natural log.
With `L38E` the binding fitness was -1.54 natural log.
`E33I` has a binding fitness of -1.5 natural log.
The binding fitness of `L52D` is reported as -1.56 natural log.
With `A49Q` the binding fitness was -1.55 natural log.
For `E33P`, the binding fitness was -1.46 natural log.
The binding fitness of `T48M` is reported as -1.48 natural log.
For `L38D`, the binding fitness was -1.56 natural log.
With `R30K` the binding fitness was -1.44 natural log.
`S47M` has a binding fitness of -1.37 natural log.
`Q55M` gave a binding fitness of -1.41 natural log.
For `S47L`, the binding fitness was -1.34 natural log.
For `I28W`, the binding fitness was -1.57 natural log.

Sample 3 — technique: DHFR PCA, deep sequencing; sample: yeast; together with: (+)-ABA 0.39 µM; baseline: wild-type fitted maximum; direction: higher = stronger binding
Target: ABI1, truncated, D143A, DHFR fusion (Arabidopsis thaliana)
Notes: methotrexate growth selection, single substitutions
Parent: PYL1, truncated, DHFR fusion (Arabidopsis thaliana); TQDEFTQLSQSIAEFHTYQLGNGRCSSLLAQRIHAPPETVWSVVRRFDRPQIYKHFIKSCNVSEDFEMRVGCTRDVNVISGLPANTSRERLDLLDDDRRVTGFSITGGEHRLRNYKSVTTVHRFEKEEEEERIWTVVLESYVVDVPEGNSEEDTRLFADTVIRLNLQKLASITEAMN
For `W134F`, “relative binding score” read 46.2%.
For `V76A`, “relative binding score” read 1.51%.
`Y141M`: “relative binding score” -9.8%.
`R49V` — result for “relative binding score”: 3.33%.
`F157W`: “relative binding score” 25.7%.
For `V43A`, “relative binding score” read 4.63%.
`E128D`: “relative binding score” 65.4%.
For `M68S`, “relative binding score” read -1.67%.
`Y115C`: “relative binding score” 9.68%.
Under “relative binding score”, `A35R` is recorded as -5.5%.
For `F66D`, “relative binding score” read 5.1%.
Under “relative binding score”, `R111H` is recorded as 13.3%.
Under “relative binding score”, `T17Y` is recorded as 0.674%.
For `W41A`, “relative binding score” read -11.1%.
For `D95A`, “relative binding score” read -9.55%.
`H55D`: “relative binding score” 11.4%.
Under “relative binding score”, `I12A` is recorded as -2.3%.
For `T106A`, “relative binding score” read -10.6%.
For `T119M`, “relative binding score” read 10.2%.
`T173Q` — result for “relative binding score”: -11.2%.
`T86C`: “relative binding score” 49.5%.
`T160S`: “relative binding score” 5.22%.
For `R155K`, “relative binding score” read 53.5%.
`F124Q`: “relative binding score” 9.96%.

Sample 4 — technique: RNA Bind-n-Seq; molecule type: RNA; sample: in vitro; concentration: 1 µM; notes: whole 134-nt RNA, ends assumed; together with: 150 mM KCl; baseline: input library; direction: higher = stronger binding
Target: Ras GTPase-activating protein-binding protein 1, C-terminal RGG region (G3BP1, Homo sapiens, UniProt Q13283)
Sequence of UniProt Q13283 (whole entry, looked up): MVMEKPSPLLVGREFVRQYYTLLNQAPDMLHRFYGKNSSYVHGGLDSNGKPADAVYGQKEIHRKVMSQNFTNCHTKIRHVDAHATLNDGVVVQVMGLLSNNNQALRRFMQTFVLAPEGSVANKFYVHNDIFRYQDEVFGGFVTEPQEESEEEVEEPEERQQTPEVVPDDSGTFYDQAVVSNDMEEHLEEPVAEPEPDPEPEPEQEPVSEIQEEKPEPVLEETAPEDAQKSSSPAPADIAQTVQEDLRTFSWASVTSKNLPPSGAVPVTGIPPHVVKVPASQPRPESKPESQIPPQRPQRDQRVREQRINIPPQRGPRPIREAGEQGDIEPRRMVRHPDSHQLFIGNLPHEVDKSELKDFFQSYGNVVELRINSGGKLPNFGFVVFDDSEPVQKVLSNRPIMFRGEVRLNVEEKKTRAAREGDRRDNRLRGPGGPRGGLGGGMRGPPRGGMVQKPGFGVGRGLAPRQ
All sequences stand within: GGGAGUUCUACAGUCCGACGAUC … UGGAAUUCUCGGGUGUCAAGG
`AGUCCUGUGCUACACAUCGUAUGUACCGAAUCAAACCCAAAUUUUUAAACCCCCAAAAAAGUAUUAUGUUACGCCGUUCGGAUCUGCACU` has a log2 enrichment of -0.969.
The log2 enrichment of `UCCUGUGCUACACAUCGUAUGUACCGAAUCGGGUUUUUGGGUUUUUGGGUUUUUUUGGGAAAGUAUUAUGUUACGCCGUUCGGAUCUGCA` is reported as -0.277.
For `GUCCUGUGCUACACAUCGUAUGUACCGAAUCGGGUUUUUGGGUUUUUGGGGUUUUUGGAAAGUAUUAUGUUACGCCGUUCGGAUCUGCAC`, the log2 enrichment was -0.753.
`GUCCUGUGCUACACAUCGUAUGUACCGAAUCGGGGAAAGGGGUUUUUUUGGGGAGGGGAAAGUAUUAUGUUACGCCGUUCGGAUCUGCAC` has a log2 enrichment of 2.21.
The log2 enrichment of `UGGGAGGUGGAUUUUGUUUAUUUUUUUAGCUCAUUUCCAGGGGUGGGAAUUUUUUUUUAAUAUGUGUCAUGAAUAAAGUUGUUUAUGAAA` is reported as 2.61.
`UCAAGUCCUGUGCUACACAUCGUAUGUACCGAAUCGGAAAGGUUUUUGGAAAGGAAAGUAUUAUGUUACGCCGUUCGGAUCUGCACUUCC` gave a log2 enrichment of -1.54.
`GCAGGAAGUAACAACAAAUGGAAAUGCUUCGGAUAGUGGCAGGGGUGGGGGUUGCUAAGGAAAGGGUGGGAUGGGAGUGGGUAAAGAGUU` has a log2 enrichment of 1.85.
With `UAUUCCAAUGUCUGUGGGAAUAAUUGACACAAGGACGAAUCCAAGCCAGUUAAAUGCGGUUGAAUUUCUGUGGGACCCAGCAAAACGCAC` the log2 enrichment was 0.525.
`GUCCUGUGCUACACAUCGUAUGUACCGAAUCGGGCCCCCGGGCCCCCGGGGCCCCCGGGAAAGUAUUAUGUUACGCCGUUCGGAUCUGCA` has a log2 enrichment of -2.14.

For quick reference, copied from above (sample 2):
With `A49Q` the binding fitness was -1.55 natural log.
For `E33P`, the binding fitness was -1.46 natural log.
The binding fitness of `T48M` is reported as -1.48 natural log.
For `L38D`, the binding fitness was -1.56 natural log.
With `R30K` the binding fitness was -1.44 natural log.
